Results gathered from unrelated publications.
Protocols differ between the studies behind these lines. Numbers after ± are the reported error.

SMILES = CC/C=C\C/C=C\C/C=C\C/C=C\C/C=C\C/C=C\CCC(=O)Nc1ccn(C2OC(CO)C(O)C2(F)F)c(=O)n1 (stereo not drawn); target or system = EKVX; assay = NCI60 screen; endpoint = CC50; result = 52.9 µM
SMILES = CC[C@H](C)[C@H](NC(=O)[C@@H](NC(=O)[C@H](CC(=O)O)NC(C)=O)[C@@H](C)O)C(=O)N[C@@H](CCCNC(=N)N)C(=O)N[C@@H](CC(C)C)C(=O)N[C@@H](CC(C)C)C(=O)N[C@@H](Cc1ccccc1)C(=O)N[C@@H](CCC(N)=O)C(=O)N[C@@H](CC(C)C)C(=O)N[C@@H](CCSC)C(=O)N[C@@H](CCCNC(=N)N)C(=O)N1CCC[C@H]1C(=O)N1CCC[C@H]1C(=O)N[C@@H](CC(N)=O)C(=O)N[C@@H](CCSC)C(=O)N[C@H](C(=O)N1CCC[C@H]1C(=O)N[C@@H](C)C(=O)N[C@H](C(=O)N[C@@H](CC(N)=O)C(=O)N[C@@H](C)C(N)=O)C(C)C)[C@@H](C)O; assay = refers to: HA-41 tetramer; system = antigen-experienced tetramer+ CD4 T cells, healthy adults, HLA-DRB1*0101; conditions = dose not given; endpoint = α4β7− CCR9+ cells; result = 0%
SMILES = CC1=CCC23OC2(C)CCC2C(C[N+](C)(C)C)C(=O)OC2C13.[I-] (stereo not drawn); target or system = T47D; assay = cell growth or viability, SRB; conditions = 8.3 µM; endpoint = inhibition; result = 76.7%
SMILES = CC[C@H](C)[C@H](NC(=O)[C@H](CCCNC(=N)N)NC(=O)[C@H](CCC(N)=O)NC(=O)[C@@H](NC(=O)[C@@H](NC(=O)[C@H](CCCNC(=N)N)NC(=O)[C@H](CCCCN)NC(=O)[C@@H](N)Cc1ccccc1)[C@@H](C)CC)C(C)C)C(=O)N[C@@H](CCCCN)C(=O)N[C@@H](CC(=O)O)C(=O)N[C@@H](Cc1ccccc1)C(=O)N[C@@H](CC(C)C)C(=O)N[C@@H](CCCNC(=N)N)C(=O)O; target or system = LAD2; assay = agonist; conditions = 3 µM, with: Escherichia coli LPS 10 µg/mL, 5 min preincubation; endpoint = LPS effect on degranulation; result = no effect
SMILES = CN[C@](C)(C[18F])C(=O)O; target or system = MDA-MB-468 tumour model; system = host not given, bone; conditions = 30 min, tumour-bearing; endpoint = tracer uptake; result = 2.4 %ID/g
SMILES = O=C1C[C@@H](c2ccc(O)cc2)Oc2cc(O)ccc21; system = Sprague-Dawley rat, Freund's adjuvant arthritis; conditions = oral, 10 mg/kg, 1 h, with: aconitine 1 mg/kg; endpoint = hind paw volume; result = 1.79 ± 0.11 mL
SMILES = C=CCc1cc(OC)c(OC)c(OC)c1OC; target or system = T47D; assay = cell growth or viability; conditions = 72 h; endpoint = GI50; result = > 250 µM
SMILES = C=C1C(=O)O[C@H]2[C@H]1CCC(COC(=O)c1cn[nH]c1-c1ccccc1)=C1CC[C@@](C)(O)[C@@H]12; target or system = M9-ENL1 leukaemia cells; assay = annexin V/7-AAD flow cytometry; conditions = 24 h, 5% human plasma; endpoint = CC50; result = 8.6 µM
SMILES = Cc1cc(C)c(N2CCN(c3c(C)cc(C)cc3C)C2=[Se])c(C)c1.[Cl][Au]; target or system = H157 spheroids; assay = acid phosphatase; conditions = 72 h, 3D spheroid; endpoint = IC50; result = 8.6 ± 0.4 µM
SMILES = CC1CN1c1cc(O)c2nc(N)sc2c1 (stereo not drawn); target or system = NUP98-NSD1 mouse cells; assay = qPCR, refers to: Hoxa9, Hoxa5, Hoxa7, Meis1; conditions = concentration not given, 8 days; endpoint = mRNA level reduction; result = ≤ 50%
SMILES = N=C(N)NCCC[C@@H]1NC(=O)[C@H](CCCCNC(=O)CC[C@H](NC(=O)CCOCCOCCOCCOCCNC(=O)CC[C@H](NC(=O)CN2CCN(CC(=O)O)CCN(CC(=O)O)CCN(CC(=O)O)CC2)C(=O)NCCOCCOCCOCCOCCC(=O)N[C@@H](CCC(=O)NCCCC[C@@H]2NC(=O)[C@@H](Cc3ccccc3)NC(=O)[C@H](CC(=O)O)NC(=O)CNC(=O)[C@H](CCCNC(=N)N)NC2=O)C(=O)NCCCC[C@@H]2NC(=O)[C@@H](Cc3ccccc3)NC(=O)[C@H](CC(=O)O)NC(=O)CNC(=O)[C@H](CCCNC(=N)N)NC2=O)C(=O)NCCCC[C@@H]2NC(=O)[C@@H](Cc3ccccc3)NC(=O)[C@H](CC(=O)O)NC(=O)CNC(=O)[C@H](CCCNC(=N)N)NC2=O)NC(=O)[C@@H](Cc2ccccc2)NC(=O)[C@H](CC(=O)O)NC(=O)CNC1=O [indium-111 labelled]; system = female athymic nude mice, kidney; conditions = intravenous, 3 µCi, 72 h, U-87 MG glioma xenograft; endpoint = tissue uptake; result = 2.31 ± 0.61 %ID/g
SMILES = COc1ccc2cc1Oc1cc3c(cc1OC)CCN(C)C3Cc1ccc(cc1)Oc1c(O)c(OC)cc3c1C(C2)N(C)CC3 (stereo not drawn); target or system = Huh-7; how to read = baseline: Huh-7 CC50 over INDO IC50; endpoint = selectivity index; result = 104
SMILES = N=C(N)NCCC[C@@H]1NC(=O)[C@H](CCCCNC(=O)CC[C@H](NC(=O)CCOCCOCCOCCOCCNC(=O)CN2CCN(CC(=O)O)CCN(CC(=O)O)CCN(CC(=O)O)CC2)C(=O)NCCCC[C@@H]2NC(=O)[C@@H](Cc3ccccc3)NC(=O)[C@H](CC(=O)O)NC(=O)CNC(=O)[C@H](CCCNC(=N)N)NC2=O)NC(=O)[C@@H](Cc2ccccc2)NC(=O)[C@H](CC(=O)O)NC(=O)CNC1=O [indium-111 labelled]; system = athymic nude mice, female, U-87 MG glioma xenograft, tumour and kidney; conditions = intravenous, 4 h; how to read = baseline: tumour over kidney; endpoint = tumour to tissue ratio; result = 1.39 ± 0.18
SMILES = CC(C)CC(O)(CC(C)C)c1cn(C(=O)N2CCCC2)nn1; target or system = mouse T-cells; assay = N-terminal labeled proteins, N-terminal enrichment proteomics, refers to: PAIP2B; conditions = 1 nM, 6 h; how to read = baseline: DMSO; endpoint = SILAC ratio; result = 2.61 ± 0.63
SMILES = COc1cc(C)cc2c1OCO2; target or system = T47D; assay = cell growth or viability; conditions = 72 h; endpoint = GI50; result = > 250 µM

Repeated from above:
SMILES = C=CCc1cc(OC)c(OC)c(OC)c1OC; target or system = T47D; assay = cell growth or viability; conditions = 72 h; endpoint = GI50; result = > 250 µM
SMILES = N=C(N)NCCC[C@@H]1NC(=O)[C@H](CCCCNC(=O)CC[C@H](NC(=O)CCOCCOCCOCCOCCNC(=O)CN2CCN(CC(=O)O)CCN(CC(=O)O)CCN(CC(=O)O)CC2)C(=O)NCCCC[C@@H]2NC(=O)[C@@H](Cc3ccccc3)NC(=O)[C@H](CC(=O)O)NC(=O)CNC(=O)[C@H](CCCNC(=N)N)NC2=O)NC(=O)[C@@H](Cc2ccccc2)NC(=O)[C@H](CC(=O)O)NC(=O)CNC1=O [indium-111 labelled]; system = athymic nude mice, female, U-87 MG glioma xenograft, tumour and kidney; conditions = intravenous, 4 h; how to read = baseline: tumour over kidney; endpoint = tumour to tissue ratio; result = 1.39 ± 0.18
SMILES = CC[C@H](C)[C@H](NC(=O)[C@@H](NC(=O)[C@H](CC(=O)O)NC(C)=O)[C@@H](C)O)C(=O)N[C@@H](CCCNC(=N)N)C(=O)N[C@@H](CC(C)C)C(=O)N[C@@H](CC(C)C)C(=O)N[C@@H](Cc1ccccc1)C(=O)N[C@@H](CCC(N)=O)C(=O)N[C@@H](CC(C)C)C(=O)N[C@@H](CCSC)C(=O)N[C@@H](CCCNC(=N)N)C(=O)N1CCC[C@H]1C(=O)N1CCC[C@H]1C(=O)N[C@@H](CC(N)=O)C(=O)N[C@@H](CCSC)C(=O)N[C@H](C(=O)N1CCC[C@H]1C(=O)N[C@@H](C)C(=O)N[C@H](C(=O)N[C@@H](CC(N)=O)C(=O)N[C@@H](C)C(N)=O)C(C)C)[C@@H](C)O; assay = refers to: HA-41 tetramer; system = antigen-experienced tetramer+ CD4 T cells, healthy adults, HLA-DRB1*0101; conditions = dose not given; endpoint = α4β7− CCR9+ cells; result = 0%
